Experimental data pooled from the literature.
Protocols differ between the studies behind these lines.
Organism: Staphylococcus aureus

`COc1ccnc(NC(=S)N2CCN(c3ncc(C(F)(F)F)cc3Cl)CC2)c1` gave an MIC of 1.9 µM (MRSA USA300-18807, clinical).
The MIC of `CC[C@H](C)[C@H](NC(=O)[C@H](CCCCN)NC(=O)[C@H](Cc1c[nH]c2ccccc12)NC(=O)[C@H](Cc1c[nH]c2ccccc12)NC(=O)[C@H](CCCCN)NC(=O)[C@H](CCCCN)NC(=O)[C@H](CCCCN)NC(=O)[C@H](Cc1c[nH]c2ccccc12)NC(=O)[C@H](CCCCN)NC(=O)[C@H](CCCCN)NC(=O)[C@H](Cc1c[nH]c2ccccc12)NC(=O)[C@H](CCCCN)NC(=O)[C@H](CCCCN)NC(=O)[C@@H](NC(=O)[C@@H](NC(=O)[C@H](CCCCN)NC(=O)[C@@H](N)CCCNC(=N)N)[C@@H](C)CC)[C@@H](C)CC)C(=O)N[C@@H](Cc1c[nH]c2ccccc12)C(=O)N[C@@H](Cc1c[nH]c2ccccc12)C(=O)N[C@@H](CCCCN)C(=O)NCCOCCOCC(N)=O` is reported as 1.9 µg/mL (broth microdilution; 25295).
The MIC of `CC(C)C[C@H](NC(=O)[C@H](CCCCN)NC(=O)[C@H](CC(C)C)NC(=O)[C@H](CCCCN)NC(=O)[C@H](CC(C)C)NC(=O)[C@H](CCCCN)NC(=O)CNC(=O)[C@H]1CCCN1C(=O)[C@H](CCCCN)NC(=O)[C@H](CC(C)C)NC(=O)[C@H](CCCCN)NC(=O)[C@H](CC(C)C)NC(=O)[C@H](CCCCN)NC(=O)[C@@H](N)CC(C)C)C(N)=O` is reported as 32 µM (broth microdilution; ATCC 29737, Mueller-Hinton broth; 18 h, 37 °C).
For `CC[C@H](C)[C@H](NC(=O)[C@@H](NC(=O)[C@H](Cc1ccccc1)NC(=O)CNC(=O)[C@H](CCC(N)=O)NC(=O)[C@H](CCCCN)NC(=O)[C@H](C)N)C(C)C)C(=O)N[C@@H](Cc1ccc(O)cc1)C(=O)N[C@@H](CCCNC(=N)N)C(=O)N[C@H](C(=O)N[C@@H](CCCNC(=N)N)C(=O)N[C@H](C(=O)N[C@@H](CCCNC(=N)N)C(=O)N[C@@H](CCCNC(=N)N)C(=O)NCC(=O)N[C@@H](CC(N)=O)C(=O)N[C@@H](CCCNC(=N)N)C(=O)N[C@@H](CCCCN)C(N)=O)C(C)C)C(C)C`, the MIC was 100 µM (broth dilution; ATCC 25923, Mueller-Hinton broth; 24 h, 37 °C).
`CC[C@H](C)[C@H](N)C(=O)N[C@@H](CO)C(=O)N[C@@H](Cc1ccccc1)C(=O)N[C@@H](CC(C)C)C(=O)NCC(=O)N[C@@H](CO)C(=O)N[C@@H](CCCCN)C(=O)N[C@H](C(=O)N[C@H](C(=O)N[C@H](C(=O)N[C@@H](CC(C)C)C(=O)N[C@@H](CC(C)C)C(=O)N[C@@H](CCCCN)C(=O)N[C@@H](CCCNC(=N)N)C(=O)N[C@@H](CCCNC(=N)N)C(=O)N[C@@H](CCCNC(=N)N)C(=O)N[C@@H](CCCNC(=N)N)C(=O)N[C@@H](CCCNC(=N)N)C(=O)N[C@@H](CCCNC(=N)N)C(=O)N[C@@H](CCCNC(=N)N)C(N)=O)C(C)C)C(C)C)C(C)C` has an MIC of 4 µM (broth microdilution; ATCC 29213; highest value reported).
The MIC of `CC[C@H](C)[C@H](N)C(=O)N[C@@H](CC(C)C)C(=O)NCC(=O)N[C@@H](CCC(=O)O)C(=O)N[C@H](C(=O)N[C@@H](Cc1c[nH]c2ccccc12)C(=O)N[C@@H](CCCCN)C(=O)NCC(=O)N[C@H](C(=O)N[C@@H](CCCCN)C(=O)N[C@@H](CC(=O)O)C(=O)N[C@H](C(=O)N[C@@H](CC(C)C)C(N)=O)[C@@H](C)CC)[C@@H](C)CC)[C@@H](C)CC` is reported as > 100 µM (broth microdilution; ATCC 25923; together with: NH4Cl 6 µM).
With `CC[C@H](C)[C@H](NC(=O)[C@H](CCCCN)NC(=O)[C@H](CC(=O)O)NC(=O)[C@H](CC(C)C)NC(=O)[C@@H](NC(=O)[C@H](CC(N)=O)NC(=O)[C@H](CC(C)C)NC(=O)[C@@H](NC(=O)[C@H](Cc1ccccc1)NC(=O)[C@H](CCCCN)NC(=O)[C@H](CCCCN)NC(=O)CNC(=O)[C@H](C)NC(=O)[C@H](CC(N)=O)NC(=O)[C@H](CCCCN)NC(=O)[C@H](Cc1ccccc1)NC(=O)[C@H](CC(N)=O)NC(=O)[C@H](CCC(=O)O)NC(=O)[C@H](Cc1c[nH]c2ccccc12)NC(=O)[C@H](CC(C)C)NC(=O)[C@@H](N)CO)[C@@H](C)CC)[C@@H](C)CC)C(=O)N[C@@H](CCCNC(=N)N)C(N)=O` the MIC was 2 µM (ATCC 6538; overnight, 37 °C, no added salts or serum).
`CN1C(=O)Cc2ccc(F)c(CNCCCC3CN(c4ccc5c(n4)NC(=O)CO5)C(=O)O3)c21` (stereo not shown) has an MIC of 0.13 µg/mL (ATCC 29213).
`CC[C@H](C)[C@H](NC(=O)[C@H](CC(C)C)NC(=O)[C@H](CCCNC(=N)N)NC(=O)[C@@H](N)CCCNC(=N)N)C(=O)N[C@@H](CC(C)C)C(=O)N[C@H](C(=O)N[C@@H](CCCCN)C(=O)N[C@H](C(=O)NCC(=O)N1CCC[C@H]1C(=O)N[C@H](C(=O)N[C@H](C(=O)N[C@@H](Cc1ccc(O)cc1)C(=O)N[C@@H](CCCCN)C(=O)N[C@@H](Cc1ccc(O)cc1)C(=O)N[C@@H](Cc1ccccc1)C(=O)N[C@@H](CCCCN)C(=O)N[C@@H](CCCCN)C(=O)N[C@@H](CCC(N)=O)C(=O)N[C@@H](CC(C)C)C(=O)N[C@@H](CCCCN)C(=O)N[C@@H](CCCCN)C(=O)N[C@@H](CC(C)C)C(N)=O)[C@@H](C)CC)[C@@H](C)CC)[C@@H](C)O)[C@@H](C)O` gave an MIC of 32 µM (CCARM 3089, methicillin-resistant, Mueller-Hinton broth; 24 h).
The MIC of `c1ccc(CCOC2CCCc3c2[nH]c2ccccc32)cc1` (stereo not shown) is reported as > 16 µg/mL (broth microdilution; HG001 daptomycin-resistant).
With `CN[C@H](CC(C)C)C(=O)N[C@H]1C(=O)N[C@@H](CC(N)=O)C(=O)N[C@H]2C(=O)N[C@H]3C(=O)N[C@H](C(=O)N[C@H](C(=O)O)c4cc(O)cc(O)c4-c4cc3ccc4O)[C@H](O)c3ccc(c(Cl)c3)Oc3cc2cc(c3O[C@@H]2O[C@H](CO)[C@@H](O)[C@H](O)[C@H]2O[C@H]2C[C@](C)(N)[C@H](O)[C@H](C)O2)Oc2ccc(cc2Cl)[C@H]1O` the MIC was 1 µg/mL (mecA−, antibiotic-susceptible).
For `CC[C@H](C)[C@H](NC(=O)[C@H](Cc1c[nH]c2ccccc12)NC(=O)[C@@H](NC(=O)[C@H](Cc1ccc(O)cc1)NC(=O)[C@@H]1CCCN1C(=O)[C@@H](NC(=O)[C@H](C)N)[C@@H](C)CC)[C@@H](C)CC)C(=O)N[C@@H](Cc1ccc(O)cc1)C(=O)N[C@@H](CCCNC(=N)N)C(=O)N[C@@H](CC(C)C)C(=O)N[C@@H](CC(C)C)C(=O)N[C@@H](CCCNC(=N)N)C(=O)N[C@@H](CCCCN)C(=O)NCC(N)=O`, the MIC was > 15 µM (broth microdilution; ATCC 35556; 18 h, 37 °C).
`CCCCCCCCCCCC[N+](C)(C)Cc1ccccc1.[Br-]` gave an MIC of > 640 µM (MRSA ATCC 33591; dark and light identical).
With `CC(C)C[C@@H](NC(=O)CNC(=O)[C@@H](CCCCN)NC(=O)[C@@H](CC(C)C)NC(=O)[C@@H](CCCCN)NC(=O)[C@@H](CCCNC(=N)N)NC(=O)[C@@H](CC(C)C)NC(=O)[C@@H](CC(C)C)NC(=O)[C@@H](CCCNC(=N)N)NC(=O)[C@H](N)CCCNC(=N)N)C(=O)N[C@H](CCCCN)C(=O)N[C@H](CCCCN)C(=O)N[C@H](Cc1ccc(O)cc1)C(=O)N[C@H](CC(C)C)C(=O)N[C@H](Cc1ccc(O)cc1)C(=O)N[C@H](Cc1ccccc1)C(=O)N[C@H](CCCCN)C(=O)N[C@H](CC(C)C)C(=O)N[C@H](CCC(N)=O)C(=O)N[C@H](CC(C)C)C(=O)N[C@H](CC(C)C)C(=O)N[C@H](CCCCN)C(=O)N[C@H](CCCCN)C(N)=O` the MIC was 8 µM (broth microdilution; KCTC 1621, Mueller-Hinton broth; together with: NH4Cl 6 µM).
For `C[C@@H](O)[C@H](NC(=O)[C@H](Cc1ccccc1)NC(=O)[C@H](Cc1c[nH]c2ccccc12)NC(=O)[C@H](Cc1ccccc1)NC(=O)[C@@H](NC(=O)[C@H](Cc1ccccc1)NC(=O)[C@H](CCCNC(=N)N)NC(=O)[C@@H](N)CCCNC(=N)N)[C@@H](C)O)C(=O)N[C@@H](Cc1ccccc1)C(=O)N[C@@H](CCCNC(=N)N)C(=O)N[C@@H](CCCNC(=N)N)C(N)=O`, the MIC was 64 µM (MRSA 43300; 24 h, 37 °C).
The MIC of `CC[C@H](C)[C@H](NC(=O)[C@H](CCCCN)NC(=O)[C@H](CCCCN)NC(=O)CNC(=O)[C@H](CCCCN)NC(=O)[C@H](CC(C)C)NC(=O)[C@H](CCCCN)NC(=O)[C@H](CCCNC(=N)N)NC(=O)[C@@H](NC(=O)[C@H](CC(C)C)NC(=O)[C@H](CCCNC(=N)N)NC(=O)[C@@H](N)CCCNC(=N)N)[C@@H](C)CC)C(=O)N[C@@H](Cc1ccc(O)cc1)C(=O)N[C@@H](CC(C)C)C(=O)N[C@@H](Cc1ccc(O)cc1)C(=O)N[C@@H](Cc1ccccc1)C(=O)N[C@@H](CCCCN)C(=O)N[C@@H](CC(C)C)C(=O)N[C@@H](CCC(N)=O)C(=O)N[C@@H](CC(C)C)C(=O)N[C@@H](CC(C)C)C(=O)N[C@@H](CCCCN)C(=O)N[C@@H](CCCCN)C(N)=O` is reported as 16 µM (KCTC 1621, Mueller-Hinton broth; together with: 2.5 mM CaCl2).
`CC[C@H](C)[C@H](NC(=O)[C@H](Cc1ccc(O)cc1)NC(=O)[C@@H](NC(=O)[C@H](Cc1c[nH]c2ccccc12)NC(=O)[C@@H]1CCCN1C(=O)[C@@H](NC(=O)[C@H](C)N)[C@@H](C)CC)[C@@H](C)CC)C(=O)N[C@@H](Cc1ccc(O)cc1)C(=O)N[C@@H](CCCNC(=N)N)C(=O)N[C@@H](CC(C)C)C(=O)N[C@@H](CC(C)C)C(=O)N[C@@H](CCCNC(=N)N)C(=O)N[C@@H](CCCCN)C(=O)NCC(=O)O` gave an MIC of 0.94 µM (broth microdilution; ATCC 6051; 18 h, 37 °C).
For `CC[C@H](C)[C@H](N)C(=O)N[C@@H](CC(C)C)C(=O)NCC(=O)N[C@H](CCCNC(=N)N)C(=O)N[C@H](C(=O)N[C@@H](Cc1ccccc1)C(=O)N[C@@H](CCCCN)C(=O)NCC(=O)N[C@H](C(=O)N[C@@H](CCCCN)C(=O)N[C@@H](CC(=O)O)C(=O)N[C@H](C(=O)N[C@@H](CC(C)C)C(N)=O)[C@@H](C)CC)[C@@H](C)CC)[C@@H](C)CC`, the MIC was 25 µM (broth microdilution; MRSA ATCC 33591, Mueller-Hinton broth; 16 h, 37 °C).
With `CC[C@H](C)[C@H](NC(=O)[C@H](CC(C)C)NC(=O)[C@H](CCCNC(=N)N)NC(=O)[C@@H](N)CCCNC(=N)N)C(=O)N[C@@H](CCCNC(=N)N)C(=O)N[C@@H](CCCCN)C(=O)N[C@@H](CC(C)C)C(=O)N[C@@H](CCCCN)C(=O)NCC(=O)N[C@@H](CC(C)C)C(=O)N[C@@H](CCCCN)C(=O)N[C@@H](CCCCN)C(=O)N[C@@H](Cc1ccc(O)cc1)C(=O)N[C@@H](CC(C)C)C(=O)N[C@@H](Cc1ccc(O)cc1)C(=O)N[C@@H](Cc1ccccc1)C(=O)N[C@@H](CCCCN)C(=O)N[C@@H](CC(C)C)C(=O)N[C@@H](CCC(N)=O)C(=O)N[C@@H](CC(C)C)C(=O)N[C@@H](CC(C)C)C(=O)N[C@@H](CCCCN)C(=O)N[C@@H](CCCCN)C(N)=O` the MIC was 8 µM (broth microdilution; KCTC 1621, Mueller-Hinton broth; 24 h, 37 °C).

For quick reference, copied from above:
With `CC(C)C[C@@H](NC(=O)CNC(=O)[C@@H](CCCCN)NC(=O)[C@@H](CC(C)C)NC(=O)[C@@H](CCCCN)NC(=O)[C@@H](CCCNC(=N)N)NC(=O)[C@@H](CC(C)C)NC(=O)[C@@H](CC(C)C)NC(=O)[C@@H](CCCNC(=N)N)NC(=O)[C@H](N)CCCNC(=N)N)C(=O)N[C@H](CCCCN)C(=O)N[C@H](CCCCN)C(=O)N[C@H](Cc1ccc(O)cc1)C(=O)N[C@H](CC(C)C)C(=O)N[C@H](Cc1ccc(O)cc1)C(=O)N[C@H](Cc1ccccc1)C(=O)N[C@H](CCCCN)C(=O)N[C@H](CC(C)C)C(=O)N[C@H](CCC(N)=O)C(=O)N[C@H](CC(C)C)C(=O)N[C@H](CC(C)C)C(=O)N[C@H](CCCCN)C(=O)N[C@H](CCCCN)C(N)=O` the MIC was 8 µM (broth microdilution; KCTC 1621, Mueller-Hinton broth; together with: NH4Cl 6 µM).
For `C[C@@H](O)[C@H](NC(=O)[C@H](Cc1ccccc1)NC(=O)[C@H](Cc1c[nH]c2ccccc12)NC(=O)[C@H](Cc1ccccc1)NC(=O)[C@@H](NC(=O)[C@H](Cc1ccccc1)NC(=O)[C@H](CCCNC(=N)N)NC(=O)[C@@H](N)CCCNC(=N)N)[C@@H](C)O)C(=O)N[C@@H](Cc1ccccc1)C(=O)N[C@@H](CCCNC(=N)N)C(=O)N[C@@H](CCCNC(=N)N)C(N)=O`, the MIC was 64 µM (MRSA 43300; 24 h, 37 °C).
